{"data": "Measurements of several laboratories", "HDAC8": "Histone deacetylase 8 (HDAC8, Homo sapiens, UniProt Q9BY41)", "F9": "Coagulation factor IX (F9, Homo sapiens, UniProt P00740)", "DRD3": "D(3) dopamine receptor (DRD3, Homo sapiens, UniProt P35462)", "PTPN2": "Tyrosine-protein phosphatase non-receptor type 2 (PTPN2, Homo sapiens, UniProt P17706)", "note": "Lines come from different studies, so protocols differ. Values joined by “and” are separate records of one study, mostly repeats; a detail may differ.", "UniProt Q9BY41, sequence (whole entry, looked up)": "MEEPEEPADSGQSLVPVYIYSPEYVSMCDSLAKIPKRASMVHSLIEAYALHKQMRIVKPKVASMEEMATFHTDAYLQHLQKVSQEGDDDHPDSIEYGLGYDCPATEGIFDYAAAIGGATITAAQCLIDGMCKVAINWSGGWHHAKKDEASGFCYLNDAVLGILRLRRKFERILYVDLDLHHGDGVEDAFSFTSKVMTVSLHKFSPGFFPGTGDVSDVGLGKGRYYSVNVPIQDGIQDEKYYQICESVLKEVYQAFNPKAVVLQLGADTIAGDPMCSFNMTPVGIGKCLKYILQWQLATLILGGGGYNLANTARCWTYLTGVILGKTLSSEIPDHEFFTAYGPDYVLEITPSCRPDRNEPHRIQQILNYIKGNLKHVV", "UniProt P17706, sequence (whole entry, looked up)": "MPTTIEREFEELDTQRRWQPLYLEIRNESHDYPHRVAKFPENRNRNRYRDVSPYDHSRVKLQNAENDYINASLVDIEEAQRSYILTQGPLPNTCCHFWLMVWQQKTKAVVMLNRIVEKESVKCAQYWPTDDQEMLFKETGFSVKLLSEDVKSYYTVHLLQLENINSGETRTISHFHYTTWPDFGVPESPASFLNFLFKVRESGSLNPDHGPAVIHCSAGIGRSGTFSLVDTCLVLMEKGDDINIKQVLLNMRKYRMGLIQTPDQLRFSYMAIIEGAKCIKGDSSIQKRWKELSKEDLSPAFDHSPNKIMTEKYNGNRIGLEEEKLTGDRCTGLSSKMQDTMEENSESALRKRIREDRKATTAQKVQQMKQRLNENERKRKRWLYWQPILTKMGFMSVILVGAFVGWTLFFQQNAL", "UniProt P35462, sequence (whole entry, looked up)": "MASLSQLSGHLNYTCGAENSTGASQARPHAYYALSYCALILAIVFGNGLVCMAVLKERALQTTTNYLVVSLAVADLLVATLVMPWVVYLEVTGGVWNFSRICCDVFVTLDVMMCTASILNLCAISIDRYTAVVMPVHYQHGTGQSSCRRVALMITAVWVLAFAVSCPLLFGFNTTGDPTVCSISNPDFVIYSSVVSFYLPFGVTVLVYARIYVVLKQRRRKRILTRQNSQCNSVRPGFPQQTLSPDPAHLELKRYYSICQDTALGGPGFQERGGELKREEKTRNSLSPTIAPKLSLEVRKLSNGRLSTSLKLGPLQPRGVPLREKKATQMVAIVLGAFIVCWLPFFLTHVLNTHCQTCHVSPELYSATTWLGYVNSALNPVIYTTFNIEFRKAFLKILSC", "UniProt P00740, sequence (whole entry, looked up)": "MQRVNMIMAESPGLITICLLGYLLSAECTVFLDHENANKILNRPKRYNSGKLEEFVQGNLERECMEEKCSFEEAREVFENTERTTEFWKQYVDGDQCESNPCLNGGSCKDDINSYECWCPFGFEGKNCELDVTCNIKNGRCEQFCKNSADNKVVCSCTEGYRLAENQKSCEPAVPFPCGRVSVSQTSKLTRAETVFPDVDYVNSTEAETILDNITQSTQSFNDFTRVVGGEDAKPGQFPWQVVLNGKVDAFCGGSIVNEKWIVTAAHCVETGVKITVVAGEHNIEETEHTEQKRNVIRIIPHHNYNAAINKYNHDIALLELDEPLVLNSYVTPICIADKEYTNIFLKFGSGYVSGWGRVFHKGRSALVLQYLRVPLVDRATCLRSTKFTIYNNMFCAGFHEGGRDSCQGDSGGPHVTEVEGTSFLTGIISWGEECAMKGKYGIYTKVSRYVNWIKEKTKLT", "UniProt P00915, sequence (whole entry, looked up)": "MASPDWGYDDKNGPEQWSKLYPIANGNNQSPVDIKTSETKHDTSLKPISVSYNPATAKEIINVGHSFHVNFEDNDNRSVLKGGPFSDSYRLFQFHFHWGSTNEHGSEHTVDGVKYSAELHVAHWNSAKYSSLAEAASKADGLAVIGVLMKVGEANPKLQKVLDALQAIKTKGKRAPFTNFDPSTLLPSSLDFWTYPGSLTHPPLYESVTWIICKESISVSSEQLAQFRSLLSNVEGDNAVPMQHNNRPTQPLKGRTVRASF", "UniProt Q9UBN7, sequence (whole entry, looked up)": "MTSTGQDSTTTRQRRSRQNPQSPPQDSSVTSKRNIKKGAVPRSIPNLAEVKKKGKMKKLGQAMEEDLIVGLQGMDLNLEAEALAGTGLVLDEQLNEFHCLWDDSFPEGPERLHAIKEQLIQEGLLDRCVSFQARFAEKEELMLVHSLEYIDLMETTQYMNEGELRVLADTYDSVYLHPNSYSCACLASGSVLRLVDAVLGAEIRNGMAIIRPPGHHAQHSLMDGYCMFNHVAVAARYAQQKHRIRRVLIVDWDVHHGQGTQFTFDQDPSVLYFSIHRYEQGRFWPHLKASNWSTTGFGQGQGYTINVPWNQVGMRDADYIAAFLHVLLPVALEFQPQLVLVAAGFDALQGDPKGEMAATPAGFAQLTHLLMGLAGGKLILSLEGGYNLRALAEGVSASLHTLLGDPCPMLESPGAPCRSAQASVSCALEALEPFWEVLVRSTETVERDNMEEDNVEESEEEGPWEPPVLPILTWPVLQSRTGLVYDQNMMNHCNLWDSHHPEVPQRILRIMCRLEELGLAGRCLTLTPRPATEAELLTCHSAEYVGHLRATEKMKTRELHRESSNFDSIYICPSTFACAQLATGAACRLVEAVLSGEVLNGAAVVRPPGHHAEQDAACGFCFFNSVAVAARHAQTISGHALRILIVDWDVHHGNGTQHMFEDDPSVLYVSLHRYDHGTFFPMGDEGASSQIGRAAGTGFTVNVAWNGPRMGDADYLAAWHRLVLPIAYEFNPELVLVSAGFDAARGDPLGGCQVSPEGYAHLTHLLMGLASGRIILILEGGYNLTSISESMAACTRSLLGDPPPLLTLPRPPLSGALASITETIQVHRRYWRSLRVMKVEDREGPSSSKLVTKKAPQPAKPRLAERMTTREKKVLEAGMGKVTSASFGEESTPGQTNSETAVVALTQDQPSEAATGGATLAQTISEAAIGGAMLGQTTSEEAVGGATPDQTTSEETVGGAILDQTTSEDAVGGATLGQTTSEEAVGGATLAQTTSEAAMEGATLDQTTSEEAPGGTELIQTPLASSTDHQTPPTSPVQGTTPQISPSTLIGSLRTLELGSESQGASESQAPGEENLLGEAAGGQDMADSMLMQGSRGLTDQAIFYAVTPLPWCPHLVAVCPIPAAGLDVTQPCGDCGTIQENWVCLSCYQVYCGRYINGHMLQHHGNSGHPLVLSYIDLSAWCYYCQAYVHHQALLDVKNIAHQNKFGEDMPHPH", "UniProt P08588, sequence (whole entry, looked up)": "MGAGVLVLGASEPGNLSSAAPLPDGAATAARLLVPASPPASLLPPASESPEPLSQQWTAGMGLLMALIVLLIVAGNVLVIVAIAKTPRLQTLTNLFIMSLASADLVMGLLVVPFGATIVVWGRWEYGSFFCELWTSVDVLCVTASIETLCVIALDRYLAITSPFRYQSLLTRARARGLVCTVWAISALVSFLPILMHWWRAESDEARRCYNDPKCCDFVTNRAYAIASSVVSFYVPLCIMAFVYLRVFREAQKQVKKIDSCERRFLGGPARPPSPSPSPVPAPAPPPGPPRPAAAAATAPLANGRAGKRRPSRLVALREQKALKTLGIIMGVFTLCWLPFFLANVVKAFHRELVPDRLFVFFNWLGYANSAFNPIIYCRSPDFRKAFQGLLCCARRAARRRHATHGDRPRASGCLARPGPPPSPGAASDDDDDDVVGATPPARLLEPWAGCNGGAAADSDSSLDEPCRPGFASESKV"}
{"SMILES": "O=C(CCCCCCNCc1ccc(F)cc1)NO", "target": "HDAC8", "test": "inhibitor", "how to read": "reference: IC50 HDAC8 over HDAC1", "selectivity ratio": 7.7}
{"SMILES": "Cc1ccc(C(=O)Nc2ccc(CP(=O)(O)O)cc2CP(=O)(O)O)cc1NC(=O)c1cccc(NC(=O)Nc2cccc(C(=O)Nc3cc(C(=O)Nc4ccc(CP(=O)(O)O)cc4CP(=O)(O)O)ccc3C)c2)c1", "target": "F9", "test": "enzyme activity, inhibitor", "how to read": "reference: factor XIa over factor IXa", "selectivity ratio": "27 fold"}
{"SMILES": "Cc1cccc(N2CCN(C[C@@H](O)c3ccccc3F)CC2)c1", "target": "DRD3", "test": "binding, radioligand competition", "how to read": "reference: Ki D2 over Ki D3", "selectivity ratio": "20 fold"}
{"SMILES": "O=C(CCCCCCNCc1ccc(-c2ccccc2)s1)NO", "target": "HDAC8", "test": "inhibitor", "how to read": "reference: IC50 HDAC8 over HDAC1", "selectivity ratio": 11}
{"SMILES": "COc1ccc(/N=N/c2ccc(OC[C@@H](O)CNC(C)C)cc2)cc1", "target": "ADRB1 (Homo sapiens, UniProt P08588)", "test": "cAMP production, EPAC FRET biosensor", "conditions": "dark", "how to read": "reference: beta1 over beta2", "selectivity ratio": 188}
{"SMILES": "COc1ccc(C(=O)Nc2cc(-c3ccc([125I])cc3)no2)cc1", "target": "Alpha-synuclein, fibrils (SNCA, Homo sapiens, UniProt P37840)", "test": "radioligand saturation binding", "how to read": "reference: α-synuclein over Aβ42 affinity", "selectivity ratio": "~5.2"}
{"SMILES": "O=C(c1ccc(F)cc1)C1CCN(C2Cc3c(O)cccc3CC2O)CC1 (racemic)", "target": "VAChT and sigma-2 receptor", "how to read": "reference: sigma-2 Ki over VAChT Ki", "selectivity ratio": 398}
{"SMILES": "O=C(CCCCCCNCc1cccnc1)NO", "target": "HDAC8", "test": "inhibitor", "how to read": "reference: IC50 HDAC8 over HDAC1", "selectivity ratio": 3.7}
{"SMILES": "CCCN(CC(=O)N(CCC)CC(=O)N(CCC)CC(=O)N(CCC)CC(=O)N(CC(=O)N(CCC)CC(=O)N(CCC)CC(=O)N(CCC)CC(=O)N(CCC)CC(=O)N(CC(=O)N(CCC)CC(=O)N(CCC)CC(=O)N(CCC)CC(=O)N(CCC)CC(=O)N(CC(N)=O)Cc1cn(CCCNC(=O)CCCOc2cccc(-c3nc4ccc(-c5nc6ccc(N7CCN(C)CC7)cc6[nH]5)cc4[nH]3)c2)nn1)Cc1cn(CCCNC(=O)CCCOc2cccc(-c3nc4ccc(-c5nc6ccc(N7CCN(C)CC7)cc6[nH]5)cc4[nH]3)c2)nn1)Cc1cn(CCCNC(=O)CCCOc2cccc(-c3nc4ccc(-c5nc6ccc(N7CCN(C)CC7)cc6[nH]5)cc4[nH]3)c2)nn1)C(=O)CNCc1cn(CCCNC(=O)CCCOc2cccc(-c3nc4ccc(-c5nc6ccc(N7CCN(C)CC7)cc6[nH]5)cc4[nH]3)c2)nn1", "target": "r(CUG)109 RNA", "test": "binding, fluorescence", "how to read": "reference: r(CUG) over herring sperm DNA", "selectivity ratio": "13 fold"}
{"SMILES": "O=C(CCCCCCN(Cc1cccnc1)Cc1cccnc1)NO", "target": "HDAC8", "test": "inhibitor", "how to read": "reference: IC50 HDAC8 over HDAC1", "selectivity ratio": 2.9}
{"SMILES": "CCn1nc2c(c1Nc1nc(-c3ccc(-n4cnc(C)c4)c(OC)n3)cs1)CCCC2", "target": "Presenilin-1, in γ-secretase complex (PSEN1, Homo sapiens, UniProt P49768)", "test": "Notch substrate cleavage", "test system": "HeLa cell membranes", "how to read": "reference: Notch over Aβ42 site IC50", "selectivity ratio": "200 to 400"}
{"SMILES": "[3H]C(CNC(=O)c1ccc(-c2ccsc2)cc1)C([3H])CN1CCN(c2ccccc2OCCF)CC1 (stereo not shown)", "target": "DRD3", "test": "binding", "test system": "HEK293", "how to read": "reference: Kd rat D3 over Kd human D3", "selectivity ratio": "4 fold"}
{"SMILES": "CCCCCCCCCCCCCCCCC1=C[C@@H](C(=O)O)[C@H]2C(=O)C(C(=O)OC)=C(CCCCCCCCCCCCCCCC)[C@H]2[C@H]1C(=O)OC", "target": "PTPN2", "test": "inhibitor, pNPP hydrolysis", "how to read": "reference: TCPTP over PTP1B, higher = TCPTP-selective", "selectivity ratio": 4}
{"SMILES": "O=C(CCCCCCNCc1ccc([N+](=O)[O-])cc1)NO", "target": "HDAC8", "test": "inhibitor", "how to read": "reference: IC50 HDAC8 over HDAC1", "selectivity ratio": 9.5}
{"SMILES": "O=C(Nc1ccc(C(=O)Nc2ccc(C(=O)Nc3ccc(S(=O)(=O)O)c4cc(S(=O)(=O)O)cc(S(=O)(=O)O)c34)cc2)cc1)Nc1ccc(C(=O)Nc2ccc(C(=O)Nc3ccc(S(=O)(=O)O)c4cc(S(=O)(=O)O)cc(S(=O)(=O)O)c34)cc2)cc1", "target": "F9", "how to read": "reference: HNE over FIXa", "selectivity ratio": "> 1590 fold"}
{"SMILES": "O=C(NO)c1ccc(Cn2sc3ccccc3c2=O)cc1", "target": "HDAC6 (Homo sapiens, UniProt Q9UBN7)", "how to read": "reference: SIRT1/2/3/5 IC50 over HDAC6 IC50", "selectivity ratio": "> 400 fold"}
{"SMILES": "N[C@@H](CCC(=O)N[C@@H](CS[Se]Cc1ccc(-c2cccc(C(O)c3ccc(Cl)c(Cl)c3)c2)cc1)C(=O)NCC(=O)O)C(=O)O (stereo partly shown)", "target": "PTPN2", "test": "enzyme activity", "conditions": "together with: pNPP, GSH 1 mM", "how to read": "reference: IC50 PTPN2 over STEP", "selectivity ratio": 27}
{"SMILES": "Cc1cc(CNCCCCCCC(=O)NO)ccc1F", "target": "HDAC8", "test": "inhibitor", "how to read": "reference: IC50 HDAC8 over HDAC1", "selectivity ratio": 20}
{"SMILES": "CC(C)c1ccc2c(c1)CC[C@H]1[C@](C)(C(=O)O)CCC[C@]21C", "target": "CA1 (Homo sapiens, UniProt P00915)", "test": "enzyme activity, inhibitor", "how to read": "reference: IC50 CA I over IC50 CA IX", "selectivity ratio": "14 and 14.5"}
{"note": "Repeated from above:"}
{"SMILES": "CC(C)c1ccc2c(c1)CC[C@H]1[C@](C)(C(=O)O)CCC[C@]21C", "target": "CA1 (Homo sapiens, UniProt P00915)", "test": "enzyme activity, inhibitor", "how to read": "reference: IC50 CA I over IC50 CA IX", "selectivity ratio": "14 and 14.5"}
{"SMILES": "O=C(CCCCCCN(Cc1cccnc1)Cc1cccnc1)NO", "target": "HDAC8", "test": "inhibitor", "how to read": "reference: IC50 HDAC8 over HDAC1", "selectivity ratio": 2.9}
{"SMILES": "[3H]C(CNC(=O)c1ccc(-c2ccsc2)cc1)C([3H])CN1CCN(c2ccccc2OCCF)CC1 (stereo not shown)", "target": "DRD3", "test": "binding", "test system": "HEK293", "how to read": "reference: Kd rat D3 over Kd human D3", "selectivity ratio": "4 fold"}
